Published values of several laboratories.
Compare with care: the assays were run in different laboratories. ± gives the spread as reported.

With `CC/C=C\C/C=C\C/C=C\C/C=C\C/C=C\C/C=C\CCC(=O)OC(CO)COP(=O)(O)OCC(N)C(=O)O` (stereo not shown) the intracellular accumulation was 10.4 ± 0.49% (human brain-like endothelial cells; LC-MS; in vitro BBB model; 1 µM, 180 min, pH 7.4).
`CC(=O)N[C@H](C(=O)N[C@H](C(=O)N[C@@H](CCCNC(=N)N)C(=O)N1Cc2ccccc2C[C@H]1C(=O)N[C@@H](Cc1ccccc1)C(N)=O)C1CCCCC1)C(C)C` has a cytokine level of 489 ± 677 pg/mL (human PBMC; Bio-Plex multiplex, item: IL-6; 500 µg/mL, 24 h).
The viability of `COc1ccc([C@@H]2CC(=O)c3c(O)cc(O[C@@H]4O[C@H](CO[C@@H]5O[C@@H](C)[C@H](O)[C@@H](O)[C@H]5O)[C@@H](O[C@H]5O[C@H](CO)[C@@H](O)[C@H](O)[C@H]5O)[C@H](O)[C@H]4O)cc3O2)cc1O` is reported as 35.5% (MRC5; cell growth or viability, MTS; 150 µg/mL, 24 h).
`NCC1OC(OC2C(N)CC(N)C(OC3OC(CO)C(O)C(N)C3O)C2OCCCCn2cc(CNc3nc(NCc4cn(CCCCOC5C(OC6OC(CN)C(O)CC6N)C(N)CC(N)C5OC5OC(CO)C(O)C(N)C5O)nn4)nc(NCc4cn(CCCCOC5C(OC6OC(CN)C(O)CC6N)C(N)CC(N)C5OC5OC(CO)C(O)C(N)C5O)nn4)n3)nn2)C(N)CC1O` (stereo not shown) has a viability of 90% (Hep G2; PrestoBlue; 2 µM, 48 h; reference: untreated).
`CCCCn1cc(C(=O)O)c(=O)c2cc(F)c(Nc3cccc(OC)c3)c([N+](=O)[O-])c21` has an IC50 of 302 µM (T47D; cell growth or viability, SRB).
`COC(=O)c1cc(CN2CCN(C(=N)N)CC2)cc(C(=O)N2CCN(C(=O)c3ccc(C(=N)N)cc3)CC2)c1` has a cytotoxicity of 0% (Calu-3; ATP content; concentration not given, 48 (unit not given)).
`CCCCn1cc(C(=O)O)c(=O)c2cc(F)c3c(nnn3-c3ccc(OC)cc3)c21` gave an IC50 of 134 µM (T47D; cell growth or viability, SRB).
`CC(C)=CCc1cc(-c2coc3cc(O)c(CC=C(C)C)c(O)c3c2=O)ccc1O` has a viability of 95.8% (K562; cell growth or viability, MTT; 12.5 µg/mL).
`C[C@@H]1NC(=O)[C@@H]2CSSC[C@H](NC(=O)[C@H](CC(=O)O)NC(=O)[C@H](CC(=O)O)NC(=O)CNC(=O)[C@H](CC(=O)O)NC(=O)[C@H](Cc3ccc(O)cc3)NC1=O)C(=O)N[C@@H](CCCCN)C(=O)N[C@@H](CO)C(=O)N[C@@H](C)C(=O)NCCc1cccc3c1Oc1c(cccc1-3)CCC(=O)N[C@@H](CO)C(=O)N2` — result for cytotoxicity: “not toxic” (OVCAR-3; concentration not given).
For `COc1ccc(-c2coc3c(CC=C(C)C)c(O)c(CC=C(C)C)c(O)c3c2=O)cc1O`, the viability was 13.2% (K562; cell growth or viability, MTT; 50 µg/mL).
The Papp A-to-B of `CNC(=O)C(NC(=O)C(O)(Cc1ccccc1)CN(Cc1ccc(Br)cc1)NC(=O)C(NC(=O)OC)C(C)(C)C)C(C)(C)C` (stereo not shown) is reported as 57.3 ± 9.9 ×10⁻⁶ cm/s (2/4/A1 rat cell monolayer; pH 7.4, 1% BSA in receiver).
With `CC(C)=CCc1c2c(c(O)c3c(=O)c(-c4ccc(O)cc4)coc13)CC(C(C)(C)O)O2` (stereo not shown) the viability was 13.3% (K562; cell growth or viability, MTT; 25 µg/mL).
`CCCCn1cc(C(=O)O)c(=O)c2cc(F)c(N)c([N+](=O)[O-])c21` has an IC50 of 359 µM (PANC-1; cell growth or viability, SRB).

For quick reference, copied from above:
`CC(C)=CCc1cc(-c2coc3cc(O)c(CC=C(C)C)c(O)c3c2=O)ccc1O` has a viability of 95.8% (K562; cell growth or viability, MTT; 12.5 µg/mL).
